Measurements collected from several papers.
Protocols differ between the studies behind these lines. Numbers after ± are the reported error.

| Molecule | cell line | assay | setting | how to read | quantity | value |
| --- | --- | --- | --- | --- | --- | --- |
| Cn1c(=O)c2c(ncn2Cc2nnc(SCC(=O)Nc3ccc(Cl)cc3)n2-c2ccccc2)n(C)c1=O | bovine erythrocytes |  | 1 mg/mL, 30 min, 37 °C |  | haemolysis | 8.9% |
| CC(=O)OC[C@H]1O[C@@H]([Se]Cc2ccc3ccccc3n2)[C@H](OC(C)=O)[C@@H](OC(C)=O)[C@@H]1OC(C)=O | J774 | cell growth or viability, WST-1 | 24 h |  | CC50 | 26.6 µM |
| Cc1ccc(C(=O)Nc2cc3nc(C4CCCCC4)[nH]c3cc2N2CCCC2)cc1 | Vero | cytotoxicity, Alamar Blue | 3 days, 37 °C |  | IC50 | > 100 µg/mL |
| COc1ccc(N2C(=O)N(c3c(C)cccc3Cl)Cc3cnc(Nc4ccc(C5CCN(C)CC5)cc4OC)nc32)nc1 | mouse BMDCs |  | added: zymosan A |  | CC50 | > 10 µM |
| CCOC(=O)CNC(=O)[C@H](CS)NC(=O)CC[C@H](N)C(=O)O | OVCAR-5 |  | concentration not given, NEM pretreatment then CuAAC, added: NEM 100 µM |  | viability | ~50% |
| CCCCCc1ccc(C#Cc2c(-c3ccc(CCCCC)cc3)oc3nc(=O)n([C@H]4C[C@H](OC(C)=O)[C@@H](COC(C)=O)O4)cc23)cc1 | HEL human embryonic lung | cell morphology |  |  | minimum cytotoxic concentration | 100 µM |
| Cc1ccc(NC(=O)CSc2nnc(Cn3cnc4c3c(=O)n(C)c(=O)n4C)n2-c2ccccc2)cc1 | bovine erythrocytes |  | 1 mg/mL, 30 min, 37 °C |  | haemolysis | 0.39% |
| CCCCOC(=O)Nc1cc2nc(C3CCCCC3)[nH]c2cc1N(CC)CCN(CC)CC | Vero | cytotoxicity, Alamar Blue | 3 days, 37 °C |  | IC50 | > 50 µg/mL |
| Cc1cc(OCc2nnc(SC3CCCC3)n2-c2cccnc2)ccc1-c1ccc(S(C)(=O)=O)cc1 | Huh-7 cells, uninfected |  | 0.1 µM, 5 days |  | viability | 59 ± 1% |
| CCCCCc1ccc(-c2oc3nc(=O)n([C@H]4C[C@H](OC(C)=O)[C@@H](COC(C)=O)O4)cc3c2C#Cc2ccc(C)cc2)cc1 | HEL human embryonic lung | cell morphology |  |  | minimum cytotoxic concentration | 100 µM |
| CCN(CC)c1cc2[nH]c(C3CCCCC3)nc2cc1NC(=O)OCCOCCOC | Vero | cytotoxicity, Alamar Blue | 3 days, 37 °C |  | IC50 | > 100 µg/mL |
| CCCCCCCCCCCC[N+](C)(C)C | horse PBMCs | resazurin viability |  |  | CC50 | 1030 µM |
| CCCCCCCC/C=C\CCCCCCCCOC(=O)C1=C(C)NC(=S)NC1c1ccccc1O (stereo not shown) | C2C12 | cell growth or viability, MTT | 10 µM, 48 h |  | viability | ~70% |
| C=Cc1cccc(C(=O)Nc2cc3nc(C4CCCCC4)[nH]c3cc2N(CC)CC)c1 | Vero | cytotoxicity, Alamar Blue | 3 days, 37 °C |  | IC50 | > 100 µg/mL |
| COC(=O)N[C@H](C(=O)N[C@@H](Cc1ccccc1)[C@@H](O)CN(Cc1ccc(-c2ccccn2)cc1)NC(=O)[C@@H](NC(=O)OC)C(C)(C)C)C(C)(C)C | Caco-2 monolayer |  | added: efflux inhibitor cocktail | B-A over A-B | efflux ratio | 2.3 |
| Cn1c(=O)c2c(ncn2Cc2nnc(SCC(=O)Nc3ccccc3)n2-c2ccccc2)n(C)c1=O | bovine erythrocytes |  | 1 mg/mL, 30 min, 37 °C |  | haemolysis | 17% |
| CCCCCCCC/C=C\CCCCCCCCOC(=O)C1=C(C)NC(=S)NC1c1cccc(Cl)c1 (stereo not shown) | C2C12 | cell growth or viability, MTT | 10 µM, 48 h |  | viability | ~70% |
| CCCOCC(=O)Nc1cc2nc(C3CCCCC3)[nH]c2cc1N(CC)CC | Vero | cytotoxicity, Alamar Blue | 3 days, 37 °C |  | IC50 | > 100 µg/mL |
| O=C(Nc1cc2ccccc2cc1C(=O)O)c1ccccc1 | HUVEC | MTT | up to 100 µM |  | viability | > 50% |

| Molecule | cell line | assay | setting | how to read | quantity | value |
| --- | --- | --- | --- | --- | --- | --- |
| COC(=O)N[C@H](C(=O)N1CCC[C@H]1c1nc(-c2ccc(-c3ccc(-c4c[nH]c([C@@H]5CCCN5C(=O)[C@@H](NC(=O)OC)C(C)C)n4)cc3)cc2)c[nH]1)C(C)C | Caco-2 monolayer |  | added: efflux inhibitor cocktail |  | Papp A-B | 15 ± 1.6 ×10⁻⁶ cm/s |
| CC(=O)OCC#Cc1c(-c2ccc(C)cc2)oc2nc(=O)n([C@H]3C[C@H](OC(C)=O)[C@@H](COC(C)=O)O3)cc12 | HEL human embryonic lung | cell morphology |  |  | minimum cytotoxic concentration | > 100 µM |
| CCCCCCCC/C=C\CCCCCCCCOC(=O)C1=C(C)NC(=S)NC1c1cccc(O)c1 (stereo not shown) | C2C12 | cell growth or viability, MTT | 10 µM, 48 h |  | viability | ~70% |
| CN(C)c1cc2[nH]c(C3CCCCC3)nc2cc1NC(=O)c1ccco1 | Vero | cytotoxicity, Alamar Blue | 3 days, 37 °C |  | IC50 | > 100 µg/mL |
| CCCN(Cc1ccccc1OC)C(=O)c1ccc(Br)c(Br)c1 | HEK293 | cell viability, MTT | 72 h |  | IC50 | 28 ± 6.4 µM |
| Cc1nc2ncnn2c(N2CCN(c3ccc(Cl)cc3)CC2)c1C | BRE-Luc reporter cells | luciferase counter screen |  |  | cytotoxicity onset concentration | > 17.9 µM |
| Cn1c(=O)c2c(ncn2Cc2nnc(SCC(=O)Nc3ccccc3F)n2-c2ccccc2)n(C)c1=O | bovine erythrocytes |  | 1 mg/mL, 30 min, 37 °C |  | haemolysis | 4.6% |
| CC(C)(C)c1cc(C(C)(C)C)c(NC(=O)c2c[nH]c3ccccc3c2=O)cc1O | Calu-3 | MTT | 15 µg/mL, 24 h | relative to: untreated control | viability | 56.4 ± 9% |
| CC(=O)OC[C@H]1O[C@@H](n2cc3c(C#CC4(O)c5ccccc5-c5ccccc54)c(-c4ccc(C)cc4)oc3nc2=O)C[C@@H]1OC(C)=O | HEL human embryonic lung | cell morphology |  |  | minimum cytotoxic concentration | 100 µM |
| C[C@H]1O[C@@H](O[C@H]2CC[C@@]3(C)[C@@H](CC[C@]4(C)[C@@H]3C=CC3=C5CC(C)(C)CC[C@]5(CO)[C@H](O)C[C@]34C)[C@]2(C)CO)[C@H](O)[C@@H](O[C@@H]2O[C@H](CO)[C@@H](O)[C@H](O)[C@H]2O)[C@H]1O | Caco-2 monolayer | Caco-2 bidirectional transport | 10 µM, 3 h, 37 °C |  | recovery apical to basolateral | 61.8% |
| O=C(O)c1cc(O)c2c(c1)C(=O)c1cccc(O)c1C2=O | Caco-2 monolayer |  | in Rhizoma extract, extract 0.025 mg/mL | relative to: Papp(B-A) over Papp(A-B) | efflux ratio | 1.03 |
| CCCN(CCC)c1cc2[nH]c(C3CCCCC3)nc2cc1NC(=O)OCc1ccccc1 | Vero | cytotoxicity, Alamar Blue | 3 days, 37 °C |  | IC50 | > 100 µg/mL |
| COc1ccc2c(O[C@@H]3C[C@H]4C(=O)N[C@]5(C(=O)NS(=O)(=O)C6CC6)C[C@H]5/C=C\CCCCN(C)C(=O)[C@@H]4C3)cc(-c3nc(C(C)C)cs3)nc2c1C | Caco-2 monolayer |  | added: efflux inhibitor cocktail | B-A over A-B | efflux ratio | 13 |
| CCN(CC)c1cc2[nH]c(C3CCCCC3)nc2cc1NC(=O)c1ccc(OC(F)(F)F)cc1 | Vero | cytotoxicity, Alamar Blue | 3 days, 37 °C |  | IC50 | > 100 µg/mL |
| CC(=O)OC[C@H]1O[C@@H](n2cc3c(C#CCCN4C(=O)c5ccccc5C4=O)c(-c4ccc(C)cc4)oc3nc2=O)C[C@@H]1OC(C)=O | HEL human embryonic lung | cell morphology |  |  | minimum cytotoxic concentration | 100 µM |
| O=C(O[C@@H]1Cc2c(O)cc(O)cc2O[C@@H]1c1cc(O)c(O)c(O)c1)c1cc(O)c(O)c(O)c1 | RPMI-8226 | ATP luminescence | added: 40 nM bortezomib |  | concentration reversing cytotoxicity | ≥ 11 µM |
| Telavancin | J774 mouse macrophages |  | 90 mg/L, 37 °C, 10% fetal calf serum |  | uptake clearance | 9.6 ± 0.6 µL/mg protein/h |
| CC1CS(=O)(=O)CCN1/N=C/c1ccc([N+](=O)[O-])o1 (stereo not shown) | J774 | cell growth or viability, WST-1 | 24 h |  | CC50 | 140 µM |
